Results collected from several papers.
Numbered parts are unrelated; each lists some results of a single study. Substitutions count along the parent as printed.
UniProt P62837, sequence (whole entry, looked up): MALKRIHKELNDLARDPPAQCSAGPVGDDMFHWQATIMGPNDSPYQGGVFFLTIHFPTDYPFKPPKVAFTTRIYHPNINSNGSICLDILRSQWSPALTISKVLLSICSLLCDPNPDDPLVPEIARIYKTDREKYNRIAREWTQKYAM

Sample 1
Target: CCNB1, cyclin fold, Cln2 fusion (human)
Technique: yeast growth competition, sequencing
Matrix: yeast
Notes: strong parent motif
Relative to: not given
Reading: higher = stronger binding
Endpoint: normalised enrichment score
Starting sequence: viral docking peptide; TSVRRALFTGGSD; partner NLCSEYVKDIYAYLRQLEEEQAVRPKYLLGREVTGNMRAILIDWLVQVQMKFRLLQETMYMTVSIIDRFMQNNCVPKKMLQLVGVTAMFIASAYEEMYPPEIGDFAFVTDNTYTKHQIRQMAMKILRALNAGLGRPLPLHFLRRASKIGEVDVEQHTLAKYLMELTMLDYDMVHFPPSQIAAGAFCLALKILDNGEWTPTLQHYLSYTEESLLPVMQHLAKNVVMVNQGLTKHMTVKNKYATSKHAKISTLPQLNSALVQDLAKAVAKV
TSVRRYLFTGGSD [A6Y]: -0.0941
TSVRRALFFGGSD [T9F]: 3.13
TSVRYALFTGGSD [R5Y]: 0.469
TSVRRALFSGGSD [T9S]: 1.69
TGVRRALFTGGSD [S2G]: 2.57
TSSRRALFTGGSD [V3S]: -0.0646
TSDRRALFTGGSD [V3D]: -0.0908
TSVRHALFTGGSD [R5H]: 0.608
TSVRRAEFTGGSD [L7E]: 0.167
TYVRRALFTGGSD [S2Y]: 1.15
TSVRRALFTGGFD [S12F]: 1.71
TSVRRAYFTGGSD [L7Y]: 0.456
TSVRRALETGGSD [F8E]: -0.101
TSVRRPLFTGGSD [A6P]: 0.382

Sample 2
Target: HLA class I histocompatibility antigen, A alpha chain, allele A*25:01 (Homo sapiens, UniProt P04439)
Read-out: peptide-MHC binding
Form: peptide
Tested at: concentration not given
Endpoint: binding
SIPFGLMSA: inactive
FAAPHRGVA: inactive
VALFSSCPVAY: inactive
EDFEIFYNL: inactive
AYDHGNVIL: inactive
EVIPYTPAM: active

Sample 3
Target: TAR DNA-binding protein 43, full length, His tag (TARDBP, Homo sapiens, UniProt Q13148, residues 1-414)
Technique: RNA Bind-n-Seq
Form: RNA
Matrix: in vitro
Tested at: 20 nM
Notes: 6-mer, flanks averaged, single round
Added: 150 mM KCl
Relative to: input library
Reading: higher = stronger binding
Endpoint: 6-mer enrichment (R)
CGGUAC: 0.816
CACUAA: 0.632
ACAAAC: 0.624
GAAGUU: 0.748
UGCCGA: 0.817
GCUACA: 0.69
AGCCUC: 0.618
ACAAGC: 0.701

Mixed results
KEQLEKHNDICAICYQDMKSAVITPCSHFFHAGCLKKWLYVQETCPLCHCHLKNSSQLP (RNF145 RING domain (UniProt Q96MT1))
lacZ reporter activity (UBE2D2 UBC core domain (UniProt P62837); yeast two-hybrid; yeast; mostly zero background; relative to: not given, higher = stronger interaction): 0
